Measured values pooled from the literature.
A part holds a random share of what one study measured. Changes are numbered by the printed parent chain.

Block 1
Target: RNA binding protein fox-1 homolog 2, RRM domain, GST-SBP tag (RBFOX2, Homo sapiens, UniProt O43251-10, residues 100-194)
Method: RNA Bind-n-Seq
Molecule type: RNA
Medium: in vitro
Concentration: 365 nM
Setting: natural RNA segment, single round, ends assumed
Relative to: no-protein control
Reading: higher = stronger binding
Measurement: RBNS enrichment (R)
Residues (chain): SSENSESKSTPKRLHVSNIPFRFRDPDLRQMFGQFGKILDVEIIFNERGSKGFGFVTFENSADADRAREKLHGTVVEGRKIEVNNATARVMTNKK
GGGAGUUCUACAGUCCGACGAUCAAGAACUUUCUGGCAGGUAGAUGGCCACCCAGGGAAUGUGGCAGGACCCUAAGAAGAGCAGGCAGCUGUGCUUGUUGAGAUAUGAGGACAGAAAAGGGACACCCUUUUAUUGGAAUUCUCGGGUGCCAA: 0.889
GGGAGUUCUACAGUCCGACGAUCAGAGUUGGAAAUGCAAAAUUGCCAAAUAGCACAAACAGUGAAUGUUUUCCAGUUAUACGAGAUGCCAAAAUAGCACUUUUGUAUUUAACAGAGUGCUUUAUGCUUUUUAAUGGAAUUCUCGGGUGCCAA: 0.305
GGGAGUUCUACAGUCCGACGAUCACUGCCAGCUUCCGCUUCUCUGUGCUCUGUGUCUGCGGUUUACAUAUAGAUCGUCCCCCUGGAAACUGAGGCAUGAGCUCUUCCUCAGAAGUCUGUGAGGGUGAAUGCUAUGGAAUUCUCGGGUGCCAA: 0.969
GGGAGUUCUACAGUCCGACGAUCGGGGCUACUUUUUUCCCUCUAAACUAAAAAAGACAUUGGCUGAAUUAUAACUAGUUAGUUAUCACCUCGUCCCUUAAAGUCAGUGACCUCCUGUGUUUGAUGUAUAUUACUGGAAUUCUCGGGUGCCAA: 0.686
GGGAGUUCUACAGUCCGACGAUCCAAUUCCUCUUUUUAAGAGAGGUACUACAUUUGAUUUCUCAAUUUCUCAGUUUGUUUUCAAUACAAACAGCAACCACUGAAAUGCAGAAAAUGGUAAUCAAGUGUGAUGUUGGAAUUCUCGGGUGCCAA: 0.544
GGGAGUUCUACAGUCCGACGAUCAGACAGAGAUAUGGACUAGGUUACAGGAAACGUGCACCGUUGGCUCCACAGACAAGAAGUGCAUUGCCAGAAGAGCAUCACUGAACGGAGCGGAGGGAGGACCAGUUGCAUGGAAUUCUCGGGUGCCAA: 2.79
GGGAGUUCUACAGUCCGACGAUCUUCCAAACACCACACGUUGAAAGCAUUUAUAAAUCCAAGUCUGAAACUCUGCGCUCUAGUACUGCUGUUAAGAUACACAACUUGUUUCUUAGUUCAUAUAAUCUCGGGAUUGGAAUUCUCGGGUGCCAA: 1.58

Block 2
Target: ABI1, truncated, D143A, DHFR fusion (Arabidopsis thaliana)
Method: DHFR PCA, deep sequencing
Medium: yeast
Setting: methotrexate growth selection, single substitutions
With: (+)-ABA 4.8 µM
Relative to: wild-type fitted maximum
Reading: higher = stronger binding
Measurement: relative binding score
Parent: PYL1, truncated, DHFR fusion (Arabidopsis thaliana); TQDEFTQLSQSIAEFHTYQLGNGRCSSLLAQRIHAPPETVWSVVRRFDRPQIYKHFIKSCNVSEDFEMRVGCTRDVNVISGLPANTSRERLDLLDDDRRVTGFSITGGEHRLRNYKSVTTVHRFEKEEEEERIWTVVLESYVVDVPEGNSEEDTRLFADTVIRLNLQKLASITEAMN; partner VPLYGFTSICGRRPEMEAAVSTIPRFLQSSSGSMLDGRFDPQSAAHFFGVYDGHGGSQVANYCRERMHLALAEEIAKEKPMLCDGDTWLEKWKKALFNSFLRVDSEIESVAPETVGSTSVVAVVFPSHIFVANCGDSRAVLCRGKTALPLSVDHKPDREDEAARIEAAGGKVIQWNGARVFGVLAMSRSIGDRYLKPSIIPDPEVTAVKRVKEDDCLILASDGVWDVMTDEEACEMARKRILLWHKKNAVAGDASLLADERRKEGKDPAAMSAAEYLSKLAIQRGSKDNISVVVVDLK
S117W: -1.53%
N177V: 94.5%
K58Q: 64.5%
N177D: 72.8%
S140M: -16.3%
S26D: 3.23%
V121W: -6.16%
T17M: 32.5%
G107K: 0.165%
S171N: 79.7%
T119P: 1.37%
D65N: 72.1%
C72H: 37.7%
V137S: -4.24%

Block 3
Target: Sal-like protein 4, full length isoform A (SALL4, Homo sapiens, UniProt Q9UJQ4, residues 1-1053)
Sequence of UniProt Q9UJQ4 (whole entry, looked up): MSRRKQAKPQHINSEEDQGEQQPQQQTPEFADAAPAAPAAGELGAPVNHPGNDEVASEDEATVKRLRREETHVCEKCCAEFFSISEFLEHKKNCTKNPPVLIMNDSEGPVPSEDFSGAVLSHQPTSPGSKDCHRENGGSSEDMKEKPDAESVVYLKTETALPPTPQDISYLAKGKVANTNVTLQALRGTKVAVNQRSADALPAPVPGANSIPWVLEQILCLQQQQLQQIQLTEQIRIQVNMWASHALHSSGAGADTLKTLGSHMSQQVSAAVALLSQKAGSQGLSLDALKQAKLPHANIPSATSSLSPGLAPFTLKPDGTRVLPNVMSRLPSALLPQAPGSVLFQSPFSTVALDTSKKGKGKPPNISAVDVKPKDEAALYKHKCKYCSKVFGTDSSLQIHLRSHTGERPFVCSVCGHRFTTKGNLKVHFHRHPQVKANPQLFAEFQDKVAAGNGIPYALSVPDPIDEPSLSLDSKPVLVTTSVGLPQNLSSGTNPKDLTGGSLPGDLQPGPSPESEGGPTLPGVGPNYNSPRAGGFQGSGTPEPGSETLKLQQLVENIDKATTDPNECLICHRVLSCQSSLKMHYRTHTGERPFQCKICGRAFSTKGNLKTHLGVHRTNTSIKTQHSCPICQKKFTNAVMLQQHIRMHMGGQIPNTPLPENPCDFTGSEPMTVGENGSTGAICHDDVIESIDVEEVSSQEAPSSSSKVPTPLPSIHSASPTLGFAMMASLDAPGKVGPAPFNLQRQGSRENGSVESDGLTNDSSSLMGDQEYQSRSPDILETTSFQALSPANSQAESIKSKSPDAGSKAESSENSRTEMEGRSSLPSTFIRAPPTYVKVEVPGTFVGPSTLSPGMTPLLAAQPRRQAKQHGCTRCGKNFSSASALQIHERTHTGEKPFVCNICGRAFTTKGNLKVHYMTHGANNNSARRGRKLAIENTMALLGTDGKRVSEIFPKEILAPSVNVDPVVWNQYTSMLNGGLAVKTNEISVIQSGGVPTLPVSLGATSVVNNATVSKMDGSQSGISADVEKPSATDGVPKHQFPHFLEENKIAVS
Method: universal PBM
Molecule type: double-stranded DNA, one strand shown
Medium: in vitro
Concentration: 600 nM
Setting: 8-mer, flanks averaged, mean of replicates
Reading: higher = stronger binding
Measurement: E-score
CTTGTTAC: 0.185
TACGCGGA: -0.0005
GTGCAGAA: 0.106
GTGCCATA: 0.123
CCCCTCTA: -0.196
ACAGAGGA: -0.0422
CATGGCGC: -0.183
CCCAGGAC: -0.388
CAGTAGCA: -0.0365
AACTTTTA: 0.265
TTTCGAAA: 0.266
TCACACAA: 0.11
AGAAAAAG: -0.0541

Block 4
Target: Interferon regulatory factor 5, full length, phosphomimetic (IRF5, Homo sapiens, UniProt Q13568-2, residues 1-514, S451D/S453D/S456D/S462D)
Method: protein-binding microarray
Molecule type: double-stranded DNA, one strand shown
Medium: in vitro
Concentration: 940 nM top
Setting: 60-bp whole probe
With: salmon DNA 0.4 mg/ml
Relative to: random background probes
Reading: higher = stronger binding
Measurement: fitted relative affinity
All sequences stand within: GCCTAGCAC … GTCTTGATTCGCTTGACGCTGCTG
TTAGGTATCGGGTACCGGTTAGTGCTA: 6.75 z-score
TCAGCTTTTTTTTTTTTACTGTGCTAG: 1.23 z-score
TTAGCTTTCAGTCTCGATTAGTGCTAG: 4.28 z-score
TTAGGTATCGACACTGGGTCAGTGCTA: 4.59 z-score
CTAGGTTTCCTACTGCTTTAGTGCTAG: 0.374 z-score
TCAGTTCTGGGAAATATTACTGTGCTA: 0.138 z-score
GAAGATTTCAATTAAAAAAAGTGCTAG: 0.217 z-score
AGTCATCTCCAAAGTCAGCCAGTGCTA: 0.15 z-score
CCAGTTCTGGGAAATATTTACGTGCTA: -0.0699 z-score
GAAGGACTGCTACTGCTGACGTGCTAG: -0.836 z-score

Block 5
Target: Histone acetyltransferase KAT6A, winged helix 1, GST fusion (KAT6A, Homo sapiens, UniProt Q92794, residues 1-85)
Method: protein binding microarray
Molecule type: double-stranded DNA, one strand shown
Medium: in vitro
Concentration: not given
Setting: 8-mer, flanks averaged, mean of 2 arrays, mostly near background
Relative to: not given
Reading: higher = stronger binding
Measurement: E-score
Construct (chain): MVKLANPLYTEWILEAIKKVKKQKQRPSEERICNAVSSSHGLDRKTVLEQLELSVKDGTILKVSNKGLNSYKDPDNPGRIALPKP
GAATCGGC: 0.24
AGCGCGGC: 0.442
ATTCGTGG: -0.231
CCTCTCAA: -0.17
AAAGGAGG: -0.174
ACGTATTC: -0.0104
CCCTGACA: -0.0992
AATGTCGC: 0.0545
AGCAAAGC: -0.0257
TCTTTCCA: -0.173
TAAGCTTA: -0.124

Block 6
Target: Ras GTPase-activating protein-binding protein 1, C-terminal RGG region (G3BP1, Homo sapiens, UniProt Q13283)
Sequence of UniProt Q13283 (whole entry, looked up): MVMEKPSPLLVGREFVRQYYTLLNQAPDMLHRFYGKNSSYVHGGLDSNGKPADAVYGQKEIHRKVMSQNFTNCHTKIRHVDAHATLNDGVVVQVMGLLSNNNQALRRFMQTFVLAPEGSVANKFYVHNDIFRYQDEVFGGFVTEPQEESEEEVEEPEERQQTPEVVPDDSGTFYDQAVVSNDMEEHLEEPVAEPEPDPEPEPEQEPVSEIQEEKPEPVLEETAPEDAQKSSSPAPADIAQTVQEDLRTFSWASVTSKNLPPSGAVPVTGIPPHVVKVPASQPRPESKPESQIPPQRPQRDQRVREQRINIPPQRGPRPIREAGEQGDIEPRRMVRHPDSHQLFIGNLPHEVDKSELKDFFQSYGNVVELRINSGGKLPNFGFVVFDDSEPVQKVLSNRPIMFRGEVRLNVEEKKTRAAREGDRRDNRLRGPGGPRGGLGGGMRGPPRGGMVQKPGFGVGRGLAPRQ
Method: RNA Bind-n-Seq
Molecule type: RNA
Medium: in vitro
Concentration: 1 µM
Setting: whole 134-nt RNA, ends assumed
With: 150 mM KCl
Relative to: input library
Reading: higher = stronger binding
Measurement: log2 enrichment
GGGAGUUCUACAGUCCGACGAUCUGUGCUACACAUCGUAUGUACCGAAUCGGGGAAAAAAAGGGGAAAAAAAGGGGAAAAAAAGGGAAAGUAUUAUGUUACGCCGUUCGGAUCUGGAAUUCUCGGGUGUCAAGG: -0.867
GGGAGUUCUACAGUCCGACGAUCGUCCUGUGCUACACAUCGUAUGUACCGAAUCGGUUUUUGGGGUUUUUGGUUUUUGGGGAAAGUAUUAUGUUACGCCGUUCGGAUCUGCACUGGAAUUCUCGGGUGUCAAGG: -1.04
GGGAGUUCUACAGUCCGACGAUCCAAGUCCUGUGCUACACAUCGUAUGUACCGAAUCGGGCCCCGGCCCCGGGCCCCGGAAAGUAUUAUGUUACGCCGUUCGGAUCUGCACUUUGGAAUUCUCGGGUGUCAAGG: -1.87
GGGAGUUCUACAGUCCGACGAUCUCAAGUCCUGUGCUACACAUCGUAUGUACCGAAUCGGAAAGGGAAAGGAAAGGGGAAAGUAUUAUGUUACGCCGUUCGGAUCUGCACUUCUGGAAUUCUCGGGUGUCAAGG: -1.39
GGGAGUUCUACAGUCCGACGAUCCAAGUCCUGUGCUACACAUCGUAUGUACCGAAUCGGGGUGGGGAAAGGGGUGGGGAAAGUAUUAUGUUACGCCGUUCGGAUCUGCACUUCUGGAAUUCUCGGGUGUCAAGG: 2.69
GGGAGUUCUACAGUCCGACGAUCGUCCUGUGCUACACAUCGUAUGUACCGAAUCGGGAAAAAGGGAAAGGGUUUUUUUGGGAAAGUAUUAUGUUACGCCGUUCGGAUCUGCACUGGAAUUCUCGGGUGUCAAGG: -0.23

Some of these lines once more (block 4):
TTAGGTATCGACACTGGGTCAGTGCTA: 4.59 z-score
TCAGTTCTGGGAAATATTACTGTGCTA: 0.138 z-score
TTAGGTATCGGGTACCGGTTAGTGCTA: 6.75 z-score
GAAGATTTCAATTAAAAAAAGTGCTAG: 0.217 z-score
